Measurements of several laboratories.
Lines come from different studies, so protocols differ. ± gives the spread as reported. Converted amounts (≈) assume the structure as drawn.

`Cn1c(-c2ccc(C(N)=O)cc2F)nnc1C(C)(C)Oc1c(F)cc(Cl)cc1F` has a Cmax mean of 491 ng/mL (young non-Japanese subjects, plasma; oral, 50 mg single dose, day 1).
For `Oc1ccc(C(c2ccc(O)cc2)(C(F)(F)F)C(F)(F)F)cc1`, “elimination (k10) half-life” read 2.29 h (refers to: free compound; Hsd:Sprague Dawley rat female, plasma; oral gavage, 340 mg/kg single dose).
For `C=C(C)[C@@H]1CC[C@]2(NCCN3CCS(=O)(=O)CC3)CC[C@]3(C)[C@H](CC[C@@H]4[C@@]5(C)CC=C(C6=CC[C@@](CF)(C(=O)O)CC6)C(C)(C)[C@@H]5CC[C@]43C)[C@@H]12`, the trough concentration was 800 ng/mL (LC-MS/MS; HIV-1-infected treatment-naive adults, plasma; oral, 140 mg once daily, day 7, monotherapy).
`O=C(O)Cc1ccccc1Nc1c(Cl)cccc1Cl` has a t1/2 of 8.6 ± 3.9 h (rat, plasma; oral, 10 mg/kg, added: sesamin 100 mg/kg).
For `CS(=O)(=O)n1cc2c(n1)CN([C@H]1CO[C@H](c3cc(F)ccc3F)[C@@H](N)C1)C2`, “concentration at 168 h” read 54.3 nM (healthy male human, plasma; oral, 100 mg single, fasted, geometric mean).
For `C=CC(=C)CC[C@]1(C)[C@H](C)C[C@H](OC)[C@@]23C(=C[C@H](OC(=O)C(C)C)C[C@@H]12)[C@@H](OC(C)=O)O[C@H]3OC(C)=O`, the haemolysis was 17.7% (haemolysis; 500 µM).
For `CCCC[C@H](NC(C)=O)C(=O)N[C@H]1CCC(=O)NC[C@@H](C(=O)N[C@@H](Cc2c[nH]c3ccccc23)C(N)=O)NC(=O)[C@H](CCCNC(=N)N)NC(=O)[C@@H](Cc2ccccc2)NC(=O)[C@H](Cc2c[nH]cn2)NC1=O`, the AUC(0-last) was 1650 ng·h/mL (beagle dog, female, plasma; subcutaneous, 8.0 mg/kg daily, day 14).
`CCC(CC)COC(=O)[C@H](C)N[P@](=O)(OC[C@H]1O[C@@](C#N)(c2ccc3c(N)ncnn23)[C@H](O)[C@@H]1O)Oc1ccccc1` gave an equilibrium solubility of 7910 µg/mL (20% w/w aqueous SBECD; 24 h, pH 1.9, 25 °C, SBECD source 2).
With `CN(c1ccccc1)c1nccc(-c2cnn3ncccc23)n1` the CLint was 450 µL/min/mg (human liver microsomes).
The plasma concentration of `S=C(NCCCc1c[nH]cn1)NCCCN(Cc1ccc(Cl)c(Cl)c1)c1ccc(Br)cn1` is reported as 1820 ng/mL (male C57BL/6 mice, plasma; intraperitoneal, 30 mg/kg, 0.083 h).
For `CC(C)NC[C@@H](C(=O)N1CCN(c2ncnc3c2[C@H](C)C[C@H]3O)CC1)c1ccc(Cl)cc1`, the AUC(0-∞) was 943 ng·h/mL (human, Severe hepatic function, plasma; oral, 100 mg single dose, NCI classification, geometric mean).
With `C/C=C/C[C@@H](C)C(=O)[C@H]1C(=O)N[C@@H](C(C)C)C(=O)N(C)CC(=O)N(C)[C@@H](CC(C)C)C(=O)N[C@@H](C(C)C)C(=O)N(C)[C@@H](CC(C)C)C(=O)N[C@@H](C)C(=O)N[C@H](C)C(=O)N(C)[C@@H](CC(C)C)C(=O)N(C)[C@@H](CC(C)C)C(=O)N(C)[C@@H](C(C)C)C(=O)N1C` the blood concentration was 2590 ng/mL (pediatric patients, blood; intravenous infusion, dose not given, 85 h, median).
The dose-normalized Cmax of `[2H]C([2H])([2H])Oc1cc2c(cc1OC([2H])([2H])[2H])C1CC(=O)C(CC(C)C)CN1CC2` (stereo not shown) is reported as 2.5 ng/mL (refers to: deuterated total (α+β)-HTBZ; healthy human volunteers, plasma; oral, 24 mg single dose, standard meal).
With `C[C@H](Oc1ccc(-c2nc(-c3ccc4[nH]cnc4c3)no2)cc1C(F)(F)F)C(F)(F)F` the plasma concentration was 9.4 ± 0.9 nM (cynomolgus monkey, aneurysm model, plasma; 0.1 mg/kg once daily, 1 h post-dose, 12 months dosing).
`C=CC(=O)Nc1cc(Nc2nccc(-c3cn(C)c4ccccc34)n2)c(OC)cc1N(C)CCN(C)C` has an MRT(0-inf) of 11.3 ± 0.88 h (Sprague-Dawley rat, male, plasma; oral, 10 mg/kg, added: avitinib 30 mg/kg single dose on day 7).
`CN/C(=N/CCSCc1nc[nH]c1C)NC#N` has a Papp of 1.9 ± 0.2 ×10⁻⁶ cm/s (human small intestinal microtissues; 10 µM, 2 h).
`Cn1cc(-c2ccc3nnc(Sc4ccc5ncccc5c4)n3n2)cn1` has a CLint of 15.8 ± 6.15 mL/min/kg (guinea pig Hartley male, hepatic S9; 1 µM, pH 7.4, added: without NADPH).
For `COc1cc(Nc2ncc3c(n2)-c2ccc(Cl)cc2C(c2c(F)cccc2OC)=NC3)ccc1C(=O)O`, the trough concentration was 1500 ± 250 nM (children with grade ≥2 toxicity, plasma; oral, 80 mg/m2, day 4, mean).
`CN(C)C(=O)c1cc2cnc(Nc3ccc(N4CCNCC4)cn3)nc2n1C1CCCC1` — result for “amount excreted in urine”: 19.3 mg (human, moderate renal impairment; oral, 400 mg, 0 to 144 h, geometric mean).
Under “acetonitrile at elution”, `CCCCCCCCCCCCCNCC(=O)N(CC(=O)N(CCCC[N+](C)(C)C)CC(=O)N(CC[N+](C)(C)C)CC(=O)N(CC(N)=O)C1CCCCC1)C1CCCCC1` is recorded as 73.3% (preparative RP-HPLC C18; water to acetonitrile gradient; 0.05% TFA in eluent; higher = more hydrophobic).
With `Cc1nc2cccc(OCC(C)(C)C(=O)NC(C)C)c2c(N)c1C(=O)O` the excreted dose was 86.2% (Sprague-Dawley rat, male, urine and feces; oral, 10 mg/kg, 72 h).
`Cc1c(C(=O)NN2CCCCC2)nc(-c2ccc(Cl)cc2Cl)n1-c1ccc(OS(=O)(=O)CCC(F)(F)F)cc1` gave a plasma concentration of 2220 nM (LC-MS/MS; cynomolgus monkey 3; intravenous infusion, 6.0 mg/kg, 90 min, total, PET mid-point).
With `COc1cc(OC)c(/C=C/S(=O)(=O)Cc2ccc(OC)c(NCC(=O)O)c2)c(OC)c1` the Tmax was 1.13 ± 0.25 h (cancer patients, phase I, plasma; oral, 140 mg twice daily, day 1 cycle 1).
The Vss/F of `CNC(=O)c1cccc2cc(Oc3ccnc4cc(OCC5(N)CC5)c(OC)cc34)ccc12` is reported as 53.6 L (human; oral, 10 mg, cycle 1 day 15, multiple dose, intermittent arm, geometric mean).
The maximum solubility of `c1ccc(CNc2nc(Nc3ccccc3)nc3ccccc23)cc1` is reported as 100 µM (0.1 M sodium acetate with 0.01% Triton X-100; pH 5.5).
`CC(=O)c1c(C)c2cnc(Nc3ccc(N4CCNCC4)cn3)nc2n(C2CCCC2)c1=O` has a mean half-life of roughly 15.6 h (paediatric patients, plasma; oral).
`COc1cccc(N2CCN(C3=Nc4c(F)cccc4[C@H](CC(=O)O)N3c3cc(C(F)(F)F)ccc3OC)CC2)c1`: “elimination rate constant” 1.83e-05 ± 2.7e-06 s⁻¹ (UHPLC-MS/MS; healthy women, plasma; intravenous infusion, 240 mg single dose, 30 min infusion, HPβCD formulation).
`COc1cccc(CCc2ccccc2OCC(CN(C)C)OC(=O)CCC(=O)O)c1` (racemic) has a CLint of 36.9 ± 5.2 µL/min/mg (human liver microsomes; 400 nM, pH 7.4, added: NADPH).
The AUC(0-tlast) of `COc1c(OCCCN2CCOCC2)ccc2c1N=C(NC(=O)c1cnc(N)nc1)N1CCN=C21` is reported as 2920 ng·h/mL (human, solid tumours, plasma; intravenous, 0.8 mg/kg, cycle 1 day 1).
With `CC(C)[C@H](NC(=O)[C@@H]1CCCN1C(=O)[C@H](CCCNC(=N)N)NC(=O)[C@H](CS)NC(=O)[C@H](Cc1c[nH]c2ccccc12)NC(=O)[C@H](CCCNC(=N)N)NC(=O)[C@@H](Cc1ccccc1)NC(=O)[C@H](Cc1c[nH]cn1)NC(=O)[C@H](CCC(=O)O)NC(=O)[C@H](CS)NC(=O)[C@H](CS)NC(=O)[C@H](CCCCN)NC(=O)[C@@H]1CC(=O)N[C@@H](CCCNC(=N)N)C(=O)N[C@@H]([C@@H](C)O)C(=O)N[C@@H](CC(=O)O)C(=O)N[C@H](Cc2ccc(O)cc2)C(=O)N1)C(N)=O` [technetium-99m labelled] the tissue uptake was 0.08 ± 0.06 %ID/g (C57 mouse, female, B16/F1 melanoma, brain; intravenous, 2 h, added: NDP-MSH 10 µg co-injected).
For `CCN(CC)Cc1cc(Nc2ccnc3cc(Cl)ccc23)ccc1O`, the Vd/F was 49.6 ± 11 L/kg (Wistar rat, male, plasma; oral, 60 mg/kg).
The solubility of `C[C@](N)(Cc1ccc(O)c(O)c1)C(=O)O` is reported as 113 µg/mL (≈ 534 µM) (supercritical carbon dioxide; 5 h, 313 K, 15 MPa, density 781.2 kg/m3).
For `Cc1cc(Nc2ncc(Cl)c(Nc3ccccc3S(=O)(=O)C(C)C)n2)c(OC(C)C)cc1C1CCNCC1`, the elimination half-life was 79.7 h (refers to: total drug; patients, plasma; oral, 750 or 450 mg/day, arithmetic mean).
With `Cn1c(C(F)(F)F)cc(=O)n(-c2cc(Oc3cccnc3OCC(=O)O)c(Cl)cc2F)c1=O` the AUC(0-24h) was 51200 ng·h/mL (beagle dog, female, plasma; oral, 300 mg/kg/day epyrifenacil, 13 weeks).
The V/F difference of `CC[C@H](C)[C@H](NC(=O)[C@H](Cc1ccccc1)NC(=O)[C@H](CC(=O)O)NC(=O)[C@H](CCCNC(=N)N)NC(=O)[C@H](C)NC(=O)[C@H](C)NC(=O)[C@H](CC(C)C)NC(=O)[C@H](CC(N)=O)NC(=O)[C@H](CC(=O)O)NC(=O)[C@H](CC(C)C)NC(=O)[C@@H](NC(=O)[C@@H](NC(=O)[C@H](CC(N)=O)NC(=O)[C@H](CCSC)NC(=O)[C@H](CCC(=O)O)NC(=O)[C@H](CC(=O)O)NC(=O)[C@H](CO)NC(=O)[C@H](Cc1ccccc1)NC(=O)[C@H](CO)NC(=O)CNC(=O)[C@H](CC(=O)O)NC(=O)CNC(=O)[C@@H](N)Cc1c[nH]cn1)[C@@H](C)O)[C@@H](C)CC)C(=O)N[C@@H](CC(N)=O)C(=O)N[C@@H](Cc1c[nH]c2ccccc12)C(=O)N[C@@H](CC(C)C)C(=O)N[C@H](C(=O)N[C@@H](CCC(N)=O)C(=O)N[C@H](C(=O)N[C@@H](CCCCN)C(=O)N[C@H](C(=O)N[C@H](C(=O)N[C@@H](CC(=O)O)C(=O)O)[C@@H](C)O)[C@@H](C)CC)[C@@H](C)O)[C@@H](C)CC` is reported as no more than 10% (Japanese patients, mild renal impairment; subcutaneous, 0.05 mg/kg; reference: normal renal function).
For `O=C1Nc2ccccc2C(=O)CCc2cc(F)ccc21`, the kinetic solubility was 50 to 100 µg/mL (≈ 186 to 371 µM) (nephelometry; aqueous buffer; 30 min, pH 6.5).
`O=C(O)C(c1cc(F)ccc1O)N1Cc2ccccc2C1=O` (stereo not shown) gave a recovery of 99.9 ± 1.5% (mouse plasma; 1500 ng/mL, time not given, -30 °C, 3 freeze-thaw cycles, high QC).
`Cc1ccc(-c2cc(C(F)(F)F)nn2-c2ccc(S(N)(=O)=O)cc2)cc1` gave an AUC of 42600 ng·h/mL (male ICR mouse, liver; oral, 3 mg/kg, 24 h).
`CCCOc1ccc([C@H]2CNC(=O)N2c2ccc3[nH]cnc3c2)cc1` has an AUC(0-t) of 348 ng·h/mL (human, plasma; oral, 50 mg, single dose, fasted).
`CN1CC[C@@H](NC(=O)Nc2ccc(C#N)cc2)C[C@@H]1c1nc2ccccc2[nH]1` has a ΔΔQTcF of 13.7 ms (healthy human volunteers; oral, 200 mg once daily, 2445 ng/mL, supratherapeutic steady-state Cmax).
